# Experimental data from different studies.
# Compare with care: the assays were run in different laboratories. Numbers after ± are the reported error.
Structure (SMILES),assay,test system,setting,half-life [h]
Cc1cccc(C)c1OCC(=O)N[C@@H](Cc1ccccc1)[C@@H](O)C[C@H](Cc1ccccc1)NC(=O)[C@H](C(C)C)N1CCCNC1=O,,"human, HIV+/HCV+ with cirrhosis, plasma","oral, total drug, steady state, median, with: lopinavir/ritonavir twice daily",7.1
CO[C@H]1C[C@@H]2CC[C@@H](C)[C@@](O)(O2)C(=O)C(=O)N2CCCC[C@H]2C(=O)O[C@H]([C@H](C)C[C@@H]2CC[C@@H](O)[C@H](OC)C2)CC(=O)[C@H](C)/C=C(\C)[C@@H](O)[C@@H](OC)C(=O)[C@H](C)C[C@H](C)/C=C/C=C/C=C/1C,,"human, whole blood","oral, 35 mg, without grapefruit juice",43
CCOc1ccc(Cc2cc([C@]34OC[C@](CO)(O3)[C@@H](O)[C@H](O)[C@H]4O)ccc2Cl)cc1,,"healthy human, plasma","oral, 15 mg, 20% glucose solution, with: glimepiride 1 mg",11.3 ± 3.28
CNC(=O)c1ccc(-c2cnc3ncc(Cc4ccc5ncccc5c4)n3n2)cc1F,,"healthy human subjects, plasma","oral, 400 mg, arithmetic mean, alone",11.2
Nc1nc2c(c(=O)[nH]1)N(C=O)C(CNc1ccc(C(=O)N[C@@H](CCC(=O)O)C(=O)O)cc1)CN2 (stereo partly drawn),measured: 5-formyltetrahydrofolate,"human, both sexes, plasma","intravenous, 214 nmol",0.3 ± 0.03
CCCC[C@H](NC(C)=O)C(=O)N[C@H]1CCC(=O)NC[C@@H](C(=O)N[C@@H](Cc2c[nH]c3ccccc23)C(N)=O)NC(=O)[C@H](CCCNC(=N)N)NC(=O)[C@@H](Cc2ccccc2)NC(=O)[C@H](Cc2c[nH]cn2)NC1=O,,"healthy human, both sexes, plasma","subcutaneous, 1.0 mg once daily, day 1, median",3.5
O=C(/C=C/c1cccc(S(=O)(=O)Nc2ccccc2)c1)NO,,"human, normal liver function, plasma","intravenous, 400 mg/m^2, 30 min infusion, single dose, mean",1.97
CN1C(=O)[C@@H](NC(=O)c2nnc(Cc3ccccc3)[nH]2)COc2ccccc21,,"human male, plasma","oral, 60 mg twice daily, day 14",2.19
Cl.NCCc1c[nH]c(=S)n1[C@H]1COc2c(F)cc(F)cc2C1,mean,"human, male, plasma","oral, 200 mg, fed, high-fat high-calorie meal",19.6
C=CC[C@@H]1/C=C(\C)C[C@H](C)C[C@H](OC)[C@H]2O[C@@](O)(C(=O)C(=O)N3CCCC[C@H]3C(=O)O[C@H](/C(C)=C/[C@@H]3CC[C@@H](O)[C@H](OC)C3)[C@H](C)[C@@H](O)CC1=O)[C@H](C)C[C@@H]2OC,,"healthy human subjects, whole blood","oral, 5 mg single dose, arithmetic mean, with: isavuconazole 200 mg once daily after loading",37.5
O=C(c1cccnc1-c1ccncc1)N1CCC(O)(Cc2ccccc2)CC1,,"healthy human, plasma","oral, 300 mg once daily, day 14, arithmetic mean",4.22
CN1CC[C@@H](NC(=O)Nc2ccc(C#N)cc2)C[C@@H]1c1nc2ccccc2[nH]1,measured: total compound,"human, severe hepatic impairment, plasma","oral, 100 mg, fasted, single dose, arithmetic mean",20.7 ± 3.5
COCCCCn1c(C(=O)N(CC(C)C)[C@@H]2CNC[C@H](C(=O)N3CCOCC3)C2)nc2ccccc21,,"non-elderly human, plasma","oral, 160 mg once daily, day 7",9.4
CCS(=O)(=O)N1CC(CC#N)(n2cc(-c3ncnc4[nH]ccc34)cn2)C1,,"healthy Chinese human subjects, plasma","oral, 10 mg, single dose, mean",7.23
Br.Cc1ccc(Sc2ccccc2N2CCNCC2)c(C)c1,,"healthy humans, plasma",oral,59 to 69
Cc1ccc(NC(=O)c2ccc(CN3CCNCC3)cc2)cc1Nc1nccc(-c2cccnc2)n1,,"human, plasma","400 mg/day imatinib, day 14 of cycle 1, metabolite of imatinib, mean, with: IL-2 6 MIU/day days 10-14",32.5
Cc1[nH]c(/C=C2\C(=O)Nc3ccccc32)c(C)c1CCC(=O)O,HPLC-UV,"human, cancer patients, plasma","oral, 200 mg/m^2 three times daily, after meal, second dose",1.46
NC(=O)N1CCC(CC(=O)N2CCC([C@H]3c4ncc(Br)cc4CCc4cc(Cl)cc(Br)c43)CC2)CC1,,"human, plasma","oral, 150 mg twice daily, cycle 1 day 15, multiple dose, with: gemcitabine 750 mg/m2",3.67
